Results pooled from the literature.
Every numbered part comes from another study and shows a few of its results, in no order. Substitutions count along the parent as printed.

Block 1
Target: CCNE2, cyclin fold, Cln2 fusion (human)
Technique: yeast growth competition, sequencing
Matrix: yeast
Setting: strong parent motif
Reference: not given
Direction: higher = stronger binding
Measurement: normalised enrichment score
Starting sequence: E2F1 docking peptide (human); PPVKRRLDFETDH
D12C: 6.43
P2W: 3.82
D12R: 6.59
V3F: 2.68
V3I: 3.25
L7V: 1.04
L7C: 0.401
R6S: 1.71
R6Y: 1.2
F9D: 0.194
F9P: 0.133
K4F: 1.57
P2Y: 4.58
T11W: 6.04
T11V: 5.68
D12I: 6.54
D12G: 6.36
D8P: 1.44
K4N: 3.73
P2N: 5.85

Block 2
Target: ABI1, truncated, D143A, DHFR fusion (Arabidopsis thaliana)
Technique: DHFR PCA, deep sequencing
Matrix: yeast
Setting: methotrexate growth selection, single substitutions
Added: (+)-ABA 0.39 µM
Reference: wild-type fitted maximum
Direction: higher = stronger binding
Measurement: relative binding score
Starting sequence: PYL1, truncated, DHFR fusion (Arabidopsis thaliana); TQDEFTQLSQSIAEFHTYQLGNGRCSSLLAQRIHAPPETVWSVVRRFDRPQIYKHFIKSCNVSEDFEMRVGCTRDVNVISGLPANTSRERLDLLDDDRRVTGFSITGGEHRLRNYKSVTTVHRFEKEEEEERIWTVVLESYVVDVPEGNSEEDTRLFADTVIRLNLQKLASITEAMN
L8W: 16.6%
V62N: -0.405%
V118T: 43.2%
I105C: -6.55%
T119L: 6.71%
Q19S: 47.6%
E129Y: 24.4%
D153E: 56.8%
S87V: 59.8%
K54N: -8.47%
Q7T: 41.6%
I133M: 40%
E64Q: 46.7%
W41M: -9.52%
S140N: -9.78%
Q167W: -0.294%

Block 3
Target: Ras GTPase-activating protein-binding protein 1, full length (G3BP1, Homo sapiens, UniProt Q13283)
Sequence of UniProt Q13283 (whole entry, looked up): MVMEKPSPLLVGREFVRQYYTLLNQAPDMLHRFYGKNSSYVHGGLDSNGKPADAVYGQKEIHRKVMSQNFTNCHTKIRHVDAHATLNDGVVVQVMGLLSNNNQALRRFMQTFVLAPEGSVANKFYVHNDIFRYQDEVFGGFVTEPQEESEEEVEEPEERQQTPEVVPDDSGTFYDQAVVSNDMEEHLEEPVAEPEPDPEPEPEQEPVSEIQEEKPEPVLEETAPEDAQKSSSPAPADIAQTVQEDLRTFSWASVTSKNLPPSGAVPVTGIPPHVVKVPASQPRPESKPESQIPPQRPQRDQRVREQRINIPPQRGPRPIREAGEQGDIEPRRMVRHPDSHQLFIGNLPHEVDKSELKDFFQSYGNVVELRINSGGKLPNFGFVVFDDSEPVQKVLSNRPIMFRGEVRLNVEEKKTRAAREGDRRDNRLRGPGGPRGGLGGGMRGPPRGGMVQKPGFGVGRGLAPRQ
Technique: RNA Bind-n-Seq
Molecule type: RNA
Matrix: in vitro
Tested at: 200 nM
Setting: whole 134-nt RNA, ends assumed
Added: 150 mM LiCl
Reference: input library
Direction: higher = stronger binding
Measurement: log2 enrichment
All molecules: 7-deaza-guanosine replaces G
Constant ends, left off below: GGGAGUUCUACAGUCCGACGAUC … UGGAAUUCUCGGGUGUCAAGG
UUUAGACAGAAACAAGAAGCAACAGAGUCCCUUAAGUGCCAAGAGGAACUUCGAGAGCGCCUUCAUGAGGAGUCCAGGGCCAGAGAACAG: -1.98
GUCCUGUGCUACACAUCGUAUGUACCGAAUCGGGGAAAGGGGUUUUUGGGGUUUGGGGAAAGUAUUAUGUUACGCCGUUCGGAUCUGCAC: -0.984
UGGCCCUGGUGGCAUGCGGGGAGGAAGAGGUGGCCUCAUGGAUCGUGGUGGUCCCGGUGCAAUGUUCAGAGGUGGCCGUGGUGGAGACAG: -0.462
AGUCCUGUGCUACACAUCGUAUGUACCGAAUCGGGAAAAGGGGAAAAGGGGAAAAGGGAAAGUAUUAUGUUACGCCGUUCGGAUCUGCAC: 0.0518
UAGUGAUGGUCCUAAAUAGCAUGAGUGUCAGCUGGAGCGCCCGGAUCCAGAUUUUCUUAACCUUUUGCAAGCUCACAGCAAUUCUGAUAA: -1.98
UCAAGUCCUGUGCUACACAUCGUAUGUACCGAAUCGGGGUUGGGUUGGGUUGGGAAAGUAUUAUGUUACGCCGUUCGGAUCUGCACUUCC: 0.183
AGUCCUGUGCUACACAUCGUAUGUACCGAAUCAAACCCAAAUUUUUUUAAAUUUAAAAAAGUAUUAUGUUACGCCGUUCGGAUCUGCACU: -1.14
GUCCUGUGCUACACAUCGUAUGUACCGAAUCGGAAAAAAAGGUUUUUGGUUUUUUUGGAAAGUAUUAUGUUACGCCGUUCGGAUCUGCAC: -2.08

Block 4
Target: Interferon regulatory factor 7, full length, phosphomimetic (IRF7, Homo sapiens, UniProt Q92985, residues 1-503, S471D/S472D/S475D/S476D/S477D/S483D/S484D/S487D)
Technique: protein-binding microarray
Molecule type: double-stranded DNA, one strand shown
Matrix: in vitro
Tested at: 2200 nM top
Setting: 60-bp whole probe
Added: salmon DNA 0.4 mg/ml
Reference: random background probes
Direction: higher = stronger binding
Measurement: fitted relative affinity
Constant ends, left off below: GCCTAGCAC … GTCTTGATTCGCTTGACGCTGCTG
Construct (chain): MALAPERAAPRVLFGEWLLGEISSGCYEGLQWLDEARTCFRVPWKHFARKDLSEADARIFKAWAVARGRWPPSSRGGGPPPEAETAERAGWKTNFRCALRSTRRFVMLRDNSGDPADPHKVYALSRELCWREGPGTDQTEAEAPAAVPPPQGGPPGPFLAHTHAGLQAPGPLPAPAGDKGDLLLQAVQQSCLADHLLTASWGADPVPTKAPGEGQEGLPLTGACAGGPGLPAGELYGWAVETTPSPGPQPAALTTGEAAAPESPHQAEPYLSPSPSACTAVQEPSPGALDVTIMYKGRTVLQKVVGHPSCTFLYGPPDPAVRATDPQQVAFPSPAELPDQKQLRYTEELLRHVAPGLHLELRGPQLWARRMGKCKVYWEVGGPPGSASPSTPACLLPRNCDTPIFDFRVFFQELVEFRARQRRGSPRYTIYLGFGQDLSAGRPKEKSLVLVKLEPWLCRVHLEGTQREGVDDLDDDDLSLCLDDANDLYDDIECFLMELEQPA
AACGGTATCGACACTGGGGACGTGCTA: 0.112 z-score
TTAGAACTGGGGACTGGATAAGTGCTA: -0.61 z-score
TTAGGTTTCGTTTCCCTTTAGTGCTAG: 11.5 z-score
TCACTTCTGGGCTGTTTGACTGTGCTA: 1.2 z-score
GACGATTTCAGTTCCGATACGTGCTAG: 2.39 z-score
TTAGGACTGGGTTTTCGGTTAGTGCTA: 2.97 z-score
TACGGTATCCTTTTCCTGACGTGCTAG: 1.88 z-score
CTGCTCTGTGCACAGAAGACGTGCTAG: 0.662 z-score
GACCGTATCCTTCTCCTGACGTGCTAG: 1.69 z-score
TCATTTTTGGTAATAGTACTGTGCTAG: 1.67 z-score
GACGGTTTCGTTCTCGGGACGTGCTAG: 6.45 z-score
AATACCTTCGAGTCTGCAACAGTGCTA: 1.12 z-score
TTAGGTCTCCTTATCCTTTGGTGCTAG: 0.849 z-score
GACGCTTTCAGTTCCGAGACGTGCTAG: 4.02 z-score
TCAGGAAATGGGAAACCCACTGTGCTA: -0.555 z-score
TCATAATTCTGATTGGAACTGTGCTAG: 0.388 z-score
TTAGGACTGCTTATCCTTCAGTGCTAG: 0.504 z-score
TGAGGTTTCGGTCTCGGTTAGTGCTAG: 6.02 z-score
GGTGCCTCGGGTTCAGGGAGGTGCTAG: -0.719 z-score

For quick reference, copied from above (block 4):
GACGGTTTCGTTCTCGGGACGTGCTAG: 6.45 z-score
GACGATTTCAGTTCCGATACGTGCTAG: 2.39 z-score
GACGCTTTCAGTTCCGAGACGTGCTAG: 4.02 z-score
TTAGGACTGCTTATCCTTCAGTGCTAG: 0.504 z-score
CTGCTCTGTGCACAGAAGACGTGCTAG: 0.662 z-score
GGTGCCTCGGGTTCAGGGAGGTGCTAG: -0.719 z-score
AACGGTATCGACACTGGGGACGTGCTA: 0.112 z-score
TTAGGTTTCGTTTCCCTTTAGTGCTAG: 11.5 z-score
TTAGAACTGGGGACTGGATAAGTGCTA: -0.61 z-score
TACGGTATCCTTTTCCTGACGTGCTAG: 1.88 z-score
